Experimental data pooled from the literature.
Each line is one published result; not all experiments were run side by side.

With `Cc1ccc(N(C)CC(=O)Nc2ccc(F)c(Cl)c2)cc1S(=O)(=O)N1CCOCC1` the kinetic solubility was 142 µM (water).
With `CCOC(=O)C12CC(N)(C1)C2` the kinetic solubility was 319 µM (PBS; pH 7.4).
The kinetic solubility of `Cc1cc(N2CC[C@@](C#N)(C3CC3)C2=O)cc(NC(=O)Cc2ccccc2)n1` is reported as 6.3 to 12.5 µg/mL (nephelometry; aqueous buffer; 30 min, pH 6.5).
`COc1cccc(CNC[C@@](O)(COCc2ccccc2)[C@@H]2CC[C@@H](C)C[C@H]2OCc2ccccc2)c1` gave a kinetic solubility of 68.4 µM (PBS; 2 h, pH 7.4).
For `Cc1ccc(NCC(=O)Nc2ccccc2)cc1S(=O)(=O)N1CCOCC1`, the kinetic solubility was 183 µM (water).
`COc1ccc(CNC[C@@](O)(COCc2ccc(OC)cc2)[C@@H]2CC[C@@H](C)C[C@H]2OCc2ccc(OC)cc2)cc1` has a kinetic solubility of 117 µM (PBS; 2 h, pH 7.4).
For `CC1=C[C@@H](C)[C@H]2[C@@H]3C(=O)C(Cl)(Cl)C(=O)[C@H](C)C(=O)O[C@@H](C)/C=C/C=C\[C@@H](C)[C@@H]3C=C[C@@H]2C1`, the kinetic solubility was 0.073 µM (PBS; 90 min, pH 7.4).
`C[C@@H]1CC[C@@H]([C@@](O)(CNCc2cccc(F)c2)COCc2ccccc2)[C@H](OCc2ccccc2)C1` has a kinetic solubility of 31.8 µM (PBS; 2 h, pH 7.4).
The kinetic solubility of `Cc1cc(N2CCC(C#N)(C3(C)CC3)C2=O)cc(C(=O)NCc2cc(F)cc(-c3cnn(C)c3)c2)n1` (racemic) is reported as under 1.6 µg/mL (nephelometry; aqueous buffer; 30 min, pH 6.5).
`Cc1ccc(NCC(=O)Nc2ccc(F)c(Cl)c2)cc1S(=O)(=O)N1CC2CC1CO2` (stereo not drawn) has a kinetic solubility of 219 µM (water).
`COc1ccccc1CNC[C@](O)(COCc1ccccc1)[C@@H]1CC[C@@H](C)C[C@H]1OCc1ccccc1` gave a kinetic solubility of 6.5 µM (PBS; 2 h, pH 7.4).
The kinetic solubility of `Cc1ccc(NC(C)(C)C(=O)Nc2ccc(F)c(Cl)c2)cc1S(=O)(=O)N1CC2CCC(C1)O2` is reported as 157 µM (water).
The kinetic solubility of `CC[C@@H](C)[C@@H]1NC(=O)[C@@H](Cc2ccccc2)NC(=O)[C@@H]2CCCN2C(=O)[C@H]([C@H](C)CC)NC(=O)[C@@H](Cc2ccccc2)NC(=O)[C@@H]2CCCN2C1=O` is reported as at least 254 µg/mL (aqueous buffer).
`Cc1ccc(NCC(=O)Nc2nccs2)cc1S(=O)(=O)N1CCOCC1` gave a kinetic solubility of over 250 µM (water).
`CCc1c(C(=O)Nc2ccc3c(c2)CN(C2CCC(=O)NC2=O)C3=O)[nH]c2c(CN)cccc12` (stereo not drawn) gave a kinetic solubility of 3.7 µM (PBS; 18 h, pH 7.4).

Excerpt of the above:
The kinetic solubility of `Cc1cc(N2CCC(C#N)(C3(C)CC3)C2=O)cc(C(=O)NCc2cc(F)cc(-c3cnn(C)c3)c2)n1` (racemic) is reported as under 1.6 µg/mL (nephelometry; aqueous buffer; 30 min, pH 6.5).
`Cc1ccc(NCC(=O)Nc2ccc(F)c(Cl)c2)cc1S(=O)(=O)N1CC2CC1CO2` (stereo not drawn) has a kinetic solubility of 219 µM (water).
